Measured values gathered from unrelated publications.
Every numbered part comes from another study and shows a few of its results, in no order.
Sequence of UniProt P07948 (whole entry, looked up): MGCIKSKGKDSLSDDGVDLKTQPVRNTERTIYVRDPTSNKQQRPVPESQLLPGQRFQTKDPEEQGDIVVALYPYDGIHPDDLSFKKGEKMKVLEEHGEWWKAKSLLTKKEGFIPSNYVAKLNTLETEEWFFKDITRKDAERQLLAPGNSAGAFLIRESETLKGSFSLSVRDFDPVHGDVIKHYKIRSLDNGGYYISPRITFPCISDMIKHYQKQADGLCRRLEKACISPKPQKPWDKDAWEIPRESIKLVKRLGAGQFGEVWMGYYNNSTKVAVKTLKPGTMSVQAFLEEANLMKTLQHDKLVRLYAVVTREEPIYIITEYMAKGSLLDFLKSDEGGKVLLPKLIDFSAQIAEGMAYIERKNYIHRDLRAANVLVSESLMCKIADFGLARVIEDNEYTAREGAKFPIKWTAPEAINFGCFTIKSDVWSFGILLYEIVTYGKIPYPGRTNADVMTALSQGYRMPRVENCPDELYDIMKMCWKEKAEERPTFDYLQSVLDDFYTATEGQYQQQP
Sequence of UniProt P45984 (whole entry, looked up): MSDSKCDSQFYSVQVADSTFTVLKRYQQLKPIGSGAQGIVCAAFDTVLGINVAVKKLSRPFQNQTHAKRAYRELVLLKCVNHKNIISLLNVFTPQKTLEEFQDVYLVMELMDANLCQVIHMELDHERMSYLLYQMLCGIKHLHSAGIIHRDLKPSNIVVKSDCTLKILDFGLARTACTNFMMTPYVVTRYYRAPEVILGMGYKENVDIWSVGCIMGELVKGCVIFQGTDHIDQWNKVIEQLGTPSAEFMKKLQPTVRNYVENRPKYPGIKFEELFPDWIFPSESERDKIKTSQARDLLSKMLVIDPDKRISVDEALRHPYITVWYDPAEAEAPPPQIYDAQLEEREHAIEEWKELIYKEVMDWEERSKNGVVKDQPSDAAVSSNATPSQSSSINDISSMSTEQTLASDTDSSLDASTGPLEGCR
Sequence of UniProt P11802 (whole entry, looked up): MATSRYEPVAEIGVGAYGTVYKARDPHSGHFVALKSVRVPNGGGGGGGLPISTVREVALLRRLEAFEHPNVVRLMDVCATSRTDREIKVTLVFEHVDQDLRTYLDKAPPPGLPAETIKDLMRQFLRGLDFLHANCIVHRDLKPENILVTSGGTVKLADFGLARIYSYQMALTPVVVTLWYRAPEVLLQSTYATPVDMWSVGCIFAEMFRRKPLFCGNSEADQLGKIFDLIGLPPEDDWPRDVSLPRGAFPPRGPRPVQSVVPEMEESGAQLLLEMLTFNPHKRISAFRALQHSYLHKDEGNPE
Sequence of UniProt P51955 (whole entry, looked up): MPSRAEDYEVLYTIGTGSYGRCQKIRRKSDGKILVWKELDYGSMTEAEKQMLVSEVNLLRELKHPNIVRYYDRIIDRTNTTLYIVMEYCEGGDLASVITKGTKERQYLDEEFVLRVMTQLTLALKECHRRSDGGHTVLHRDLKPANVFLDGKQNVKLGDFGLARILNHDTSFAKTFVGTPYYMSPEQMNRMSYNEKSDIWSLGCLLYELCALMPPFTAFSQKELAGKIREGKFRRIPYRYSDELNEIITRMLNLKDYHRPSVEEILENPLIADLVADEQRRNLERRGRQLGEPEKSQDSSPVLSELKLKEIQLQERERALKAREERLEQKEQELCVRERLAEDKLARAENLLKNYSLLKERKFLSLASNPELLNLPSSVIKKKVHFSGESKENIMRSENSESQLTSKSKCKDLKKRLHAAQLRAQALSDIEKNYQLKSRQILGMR
Sequence of UniProt P29317 (whole entry, looked up): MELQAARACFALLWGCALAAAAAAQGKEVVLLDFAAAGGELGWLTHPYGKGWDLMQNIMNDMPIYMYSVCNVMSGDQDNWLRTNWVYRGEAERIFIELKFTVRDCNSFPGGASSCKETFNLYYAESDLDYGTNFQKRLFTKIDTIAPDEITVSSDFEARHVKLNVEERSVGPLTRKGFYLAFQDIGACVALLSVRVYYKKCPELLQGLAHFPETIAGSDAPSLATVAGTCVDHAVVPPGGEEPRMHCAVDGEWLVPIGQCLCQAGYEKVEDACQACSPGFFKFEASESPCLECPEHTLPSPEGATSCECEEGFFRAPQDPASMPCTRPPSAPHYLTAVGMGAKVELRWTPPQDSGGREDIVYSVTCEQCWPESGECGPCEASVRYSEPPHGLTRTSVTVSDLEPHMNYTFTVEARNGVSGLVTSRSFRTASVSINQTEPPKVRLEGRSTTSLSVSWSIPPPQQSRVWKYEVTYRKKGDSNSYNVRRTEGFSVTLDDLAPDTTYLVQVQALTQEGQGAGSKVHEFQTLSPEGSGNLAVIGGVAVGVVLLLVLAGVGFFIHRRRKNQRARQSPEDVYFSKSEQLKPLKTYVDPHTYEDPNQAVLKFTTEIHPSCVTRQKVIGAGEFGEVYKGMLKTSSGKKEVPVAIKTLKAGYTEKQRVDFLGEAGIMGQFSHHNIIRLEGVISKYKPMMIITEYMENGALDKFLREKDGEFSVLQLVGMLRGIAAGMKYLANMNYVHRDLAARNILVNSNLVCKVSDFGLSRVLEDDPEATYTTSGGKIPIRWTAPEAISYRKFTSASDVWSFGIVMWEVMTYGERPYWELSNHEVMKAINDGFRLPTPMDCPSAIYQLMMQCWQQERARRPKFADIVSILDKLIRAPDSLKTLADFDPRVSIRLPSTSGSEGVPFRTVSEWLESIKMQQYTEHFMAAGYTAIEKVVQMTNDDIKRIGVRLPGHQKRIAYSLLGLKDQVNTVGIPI
Sequence of UniProt Q9UIK4 (whole entry, looked up): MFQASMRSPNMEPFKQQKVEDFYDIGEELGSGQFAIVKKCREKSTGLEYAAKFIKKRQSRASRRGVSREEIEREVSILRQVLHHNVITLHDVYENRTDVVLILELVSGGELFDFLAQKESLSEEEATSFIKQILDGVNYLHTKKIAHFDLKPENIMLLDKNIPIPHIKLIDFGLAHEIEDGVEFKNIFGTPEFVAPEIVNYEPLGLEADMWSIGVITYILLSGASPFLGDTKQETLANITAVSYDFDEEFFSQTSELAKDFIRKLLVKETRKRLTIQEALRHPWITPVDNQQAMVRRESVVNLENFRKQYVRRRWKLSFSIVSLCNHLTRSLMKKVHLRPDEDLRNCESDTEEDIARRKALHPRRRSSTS
Sequence of UniProt Q13188 (whole entry, looked up): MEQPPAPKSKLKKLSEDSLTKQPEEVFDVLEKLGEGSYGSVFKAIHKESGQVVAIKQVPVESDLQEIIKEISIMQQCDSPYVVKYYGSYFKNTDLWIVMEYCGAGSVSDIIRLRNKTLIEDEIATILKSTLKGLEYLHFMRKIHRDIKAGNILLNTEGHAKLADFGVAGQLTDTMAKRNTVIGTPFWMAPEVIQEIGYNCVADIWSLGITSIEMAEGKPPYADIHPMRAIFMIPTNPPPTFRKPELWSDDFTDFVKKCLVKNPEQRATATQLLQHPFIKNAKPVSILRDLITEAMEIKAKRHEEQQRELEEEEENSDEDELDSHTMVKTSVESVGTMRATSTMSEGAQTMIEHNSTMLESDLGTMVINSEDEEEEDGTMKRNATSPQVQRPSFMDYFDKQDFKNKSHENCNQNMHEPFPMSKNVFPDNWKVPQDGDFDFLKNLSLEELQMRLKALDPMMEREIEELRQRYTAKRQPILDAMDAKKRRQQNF
Sequence of UniProt Q99759 (whole entry, looked up): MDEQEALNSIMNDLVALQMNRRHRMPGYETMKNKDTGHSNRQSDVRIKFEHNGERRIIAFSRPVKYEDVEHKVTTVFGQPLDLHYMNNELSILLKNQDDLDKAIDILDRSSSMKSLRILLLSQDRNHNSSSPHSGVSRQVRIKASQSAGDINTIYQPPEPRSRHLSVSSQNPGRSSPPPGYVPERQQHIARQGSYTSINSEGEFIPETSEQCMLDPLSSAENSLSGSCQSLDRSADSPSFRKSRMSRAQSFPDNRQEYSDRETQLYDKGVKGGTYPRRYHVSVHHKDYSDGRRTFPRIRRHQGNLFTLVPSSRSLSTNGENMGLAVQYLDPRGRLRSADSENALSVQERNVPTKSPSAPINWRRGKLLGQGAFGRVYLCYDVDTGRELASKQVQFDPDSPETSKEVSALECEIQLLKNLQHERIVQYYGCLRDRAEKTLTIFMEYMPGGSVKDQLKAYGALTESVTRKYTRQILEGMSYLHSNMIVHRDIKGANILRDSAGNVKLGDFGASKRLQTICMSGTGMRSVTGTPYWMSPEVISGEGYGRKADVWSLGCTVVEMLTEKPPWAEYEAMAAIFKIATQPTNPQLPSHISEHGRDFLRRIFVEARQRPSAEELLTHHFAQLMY
Sequence of UniProt P05771 (whole entry, looked up): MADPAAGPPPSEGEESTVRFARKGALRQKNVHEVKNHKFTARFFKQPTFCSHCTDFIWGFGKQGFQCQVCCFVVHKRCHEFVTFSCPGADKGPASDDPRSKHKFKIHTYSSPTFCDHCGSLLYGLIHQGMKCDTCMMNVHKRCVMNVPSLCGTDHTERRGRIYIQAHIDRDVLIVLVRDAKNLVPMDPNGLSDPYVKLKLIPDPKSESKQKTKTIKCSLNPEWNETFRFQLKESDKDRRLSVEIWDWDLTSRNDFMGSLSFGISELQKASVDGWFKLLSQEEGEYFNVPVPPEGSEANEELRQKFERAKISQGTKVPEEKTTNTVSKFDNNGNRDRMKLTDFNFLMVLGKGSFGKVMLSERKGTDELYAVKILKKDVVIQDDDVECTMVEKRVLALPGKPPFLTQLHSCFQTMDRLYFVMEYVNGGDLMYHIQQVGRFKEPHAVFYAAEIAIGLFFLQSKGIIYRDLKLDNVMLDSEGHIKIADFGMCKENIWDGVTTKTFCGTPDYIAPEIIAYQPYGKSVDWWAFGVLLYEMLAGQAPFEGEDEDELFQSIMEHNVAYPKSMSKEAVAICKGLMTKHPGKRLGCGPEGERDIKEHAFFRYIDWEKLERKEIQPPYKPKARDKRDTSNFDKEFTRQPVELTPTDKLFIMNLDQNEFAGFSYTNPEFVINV

Study 1 — effect on: cell-free assay; technique: competition with immobilised ligand; concentration: 1 µM
SMILES: CCCCN(CCCC)C(=O)CN1C[C@H](c2cc(OC)c3c(c2)OCO3)[C@@H](C(=O)O)[C@@H]1CC(C)(C)CCC
target | remaining binding [%]
CAMK1 (Homo sapiens, UniProt Q14012) | 100
LYN (Homo sapiens, UniProt P07948) | 100
MAPK9 (Homo sapiens, UniProt P45984) | 100
EPHA2 (Homo sapiens, UniProt P29317) | 100
STK3 (Homo sapiens, UniProt Q13188) | 96.1
ULK1 (Homo sapiens, UniProt O75385) | 79.4
Cyclin-dependent kinase 4, with cyclin D1 (CDK4, Homo sapiens, UniProt P11802) | 70.3
CLK1 (Homo sapiens, UniProt P49759) | 96.1
Tyrosine-protein kinase ABL1, phosphorylated (ABL1, Homo sapiens, UniProt P00519) | 79.8
RAF1 (Homo sapiens, UniProt P04049) | 100
FLT3 (Homo sapiens, UniProt P36888, F691L/ITD) | 90.6
CIT (Homo sapiens, UniProt O14578) | 100
TNK1 (Homo sapiens, UniProt Q13470) | 100
LTK (Homo sapiens, UniProt P29376) | 100
BMX (Homo sapiens, UniProt P51813) | 100

Study 2 — technique: phase 2a trial; species: idiopathic pulmonary fibrosis patients
SMILES: CC(C)n1cnc(-c2ccc(F)cc2)c1-c1ncc(C(=O)Nc2ccc(N3CCN(C)CC3)cc2)[nH]1
dose | notes | patients with nausea [%]
30 mg once daily | grade 1 emergent event | 0
all arms | grade 1 emergent event | 0
all arms | grade 3 emergent event | 0
30 mg once daily | grade 5 emergent event | 0
60 mg once daily | grade 4 emergent event | 0
all arms | grade 4 emergent event | 0
60 mg once daily | grade 3 emergent event | 0

Study 3 — effect on: enzyme activity; mode: inhibitor; concentration: 0.5 µM; reference: control
SMILES: Nc1nc(Nc2ccc(S(N)(=O)=O)cc2)nn1C(=S)Nc1c(F)cccc1F
target | remaining activity [%]
Protein kinase C beta type, isoform beta-I (PRKCB, Homo sapiens, UniProt P05771) | 75.2
TGFBR2 (Homo sapiens, UniProt P37173) | 89.3
DAPK1 (Homo sapiens, UniProt P53355) | 81.3
PRKCA (Homo sapiens, UniProt P17252) | 46.2
CAMK2D (Homo sapiens, UniProt Q13557) | 15.6
CHEK2 (Homo sapiens, UniProt O96017) | 1.96
STK11 (Homo sapiens, UniProt Q15831) | 23.5
MAP3K3 (Homo sapiens, UniProt Q99759) | 5.41
IKBKE (Homo sapiens, UniProt Q14164) | 67.2
cGMP-dependent protein kinase 1, isoform beta (PRKG1, Homo sapiens, UniProt Q13976) | 85.1
NEK2 (Homo sapiens, UniProt P51955) | 98.3
CAMKK2 (Homo sapiens, UniProt Q96RR4) | 5.4
OXSR1 (Homo sapiens, UniProt O95747) | 67.6
Tyrosine-protein kinase Lyn, isoform B (LYN, Homo sapiens, UniProt P07948) | 56.1
Cyclin-dependent kinase 4, with cyclin D1 (CDK4, Homo sapiens, UniProt P11802) | 87.7
STK10 (Homo sapiens, UniProt O94804) | 3.96
Cyclin-dependent kinase 5, with p25 (CDK5, Homo sapiens, UniProt Q00535) | 0.156
MAPK9 (Homo sapiens, UniProt P45984) | 80.9
IKBKB (Homo sapiens, UniProt O14920) | 49.3
STK39 (Homo sapiens, UniProt Q9UEW8) | 76.5
GRK3 (Homo sapiens, UniProt P35626) | 88
DAPK2 (Homo sapiens, UniProt Q9UIK4) | 83
PRKACA (Homo sapiens, UniProt P17612) | 78.2

Study 4 — species: human; medium: microsomes or S9; concentration: 2 µM; time: 0.5 h
SMILES | remaining compound
CCN1CCN(C2(CNc3oc(-c4ccc(Br)o4)nc3C#N)CCCCC2)CC1 | 53.2%
CC1(C)CC(O)CC(C)(C)N1CC(O)COc1cccc2ccccc12 (centres unmarked) | 0.0346%
CC(=O)c1c(C)n(S(=O)(=O)c2ccc(C)cc2)c2ccc(NS(=O)(=O)c3ccc(C)cc3)cc12 | 9.91%
CC(C)(C)c1ccc(C(=O)Nc2cc(-n3cnnn3)ccc2N2CCOCC2)cc1 | 76.4%
COc1cccc(-c2csc3[nH]cnc(=O)c23)c1 | 26.3%
CCCc1nc(C(=O)N2C[C@@H](CN3C[C@@H](C)O[C@@H](C)C3)[C@@H](CO)C2)cs1 | 69.6%
CCOC(=O)Cn1c(=O)n(-c2cccc(O)c2)c2ncnc(N)c21 | 74.6%
CCOC(=O)c1c(C)c(CCC(=O)NCCN2CCCCC2)n(C)c1C | 64.3%

A few entries again (study 2):
dose | notes | patients with nausea [%]
all arms | grade 4 emergent event | 0
30 mg once daily | grade 1 emergent event | 0
60 mg once daily | grade 3 emergent event | 0
all arms | grade 1 emergent event | 0
